Experimental data from different studies.
Each line is one published result; not all experiments were run side by side. “And” joins repeats or separate records; there may be more than shown. ± marks the error that the study gave.

SMILES	tested on	test	system	setting	how to read	quantity	result
CC[C@]1(O)C[C@H]2CN(CCc3c([nH]c4ccccc34)[C@@](C(=O)OC)(c3cc4c(cc3OC)N(C=O)[C@H]3[C@@](O)(C(=O)OC)[C@H](OC(C)=O)[C@]5(CC)C=CCN6CC[C@]43[C@@H]65)C2)C1	KBv200 ABCB1-overexpressing					IC50	574 ± 62.5 nM
CC(C)c1cccc(C(C)C)c1-n1ccn(-c2c(C(C)C)cccc2C(C)C)c1=[Se]	H157 lung carcinoma cells	cell viability, MTT		72 h		IC50	8400 nM
CCCCN1C[C@H](O)[C@@H](O)[C@H](O)[C@H]1CO	Sandhoff disease patient fibroblasts	glycosphingolipid lowering, LC-MS/MS, item: HexCer d18:0/22:0				IC50	5080 nM
C=CC(=O)Nc1cc(Nc2nccc(-c3cn(C)c4ccccc34)n2)c(OC)cc1N(C)CCN(C)C	Ba/F3 EGFR D770_N771insSVD	cell growth, CellTiter-Glo		72 h		IC50	35 ± 1.89 nM
CC[C@H](C)[C@@H]1NC(=O)[C@H](Cc2ccc(-c3ccccc3)cc2)NC(=O)[C@H](CC(C)C)NC(=O)[C@@H]2[C@@H](c3ccccc3)CCN2C(=O)[C@H](NC(=O)[C@@H](CCCNC(=N)N)NC(=O)[C@@H](CCCNC(=N)N)NC(=O)[C@H](CCCCN=[N+]=[N-])NC(C)=O)CSCSC[C@@H](C(=O)N[C@H](CCCNC(=N)N)C(=O)N[C@H](CCCNC(=N)N)C(N)=O)NC(=O)[C@H](C(C)C)NC(=O)[C@@H]2CCCN2C(=O)[C@H](CC(=O)O)NC(=O)[C@H](Cc2ccc(O)cc2)NC(=O)[C@](C)(CO)NC1=O	AsPC-1	AlphaScreen, item: pERK		2 h		IC50	6000 nM
Cc1cc(Nc2ncc(Cl)c(Nc3ccccc3S(=O)(=O)C(C)C)n2)c(OC(C)C)cc1C1CCNCC1	Rh28 (alveolar rhabdomyosarcoma)	cell growth		3 days		IC50	150 ± 40 nM
CCCc1cc(-c2nc(-c3ccc(C)cc3)cs2)ccn1	NKM-1	cell viability		72 h		IC50	7340 ± 580 nM
COc1cc(C(=O)c2nc(-c3cccc4[nH]ccc34)cs2)cc(OC)c1OC	PC-3/TxR paclitaxel-resistant	cell growth, MTS		72 h		IC50	3.4 ± 0.5 nM
Cc1cccc(-c2[nH]c(CNc3ccccc3F)nc2-c2ccc3ncnn3c2)n1	MM1.S, pomalidomide-resistant	cell viability, XTT				IC50	~1500 nM
COc1cccc2c1C(=O)c1c(O)c3c(c(O)c1C2=O)C[C@@](O)(C(=O)CO)C[C@@H]3O[C@H]1C[C@H](N)[C@H](O)[C@H](C)O1	HCT-116 CDK4 knockout	cell growth, SRB				IC50	120 nM
NCCOCCCN1CCN(c2ccc(-c3cncc(Cl)c3N3CCC4(CCNC4=O)CC3)cc2)CC1	7dF3	WNT reporter gene, inhibitor				IC50	7 ± 3 nM
CC(=O)c1ccc(-c2cccc(NC(=O)CCc3cccc4c3B(O)OC4)c2)cc1	HCT-116 parental	cell viability, CellTiter-Glo				IC50	170 nM
CC1(C)CC(=O)C2=C(C1)Oc1ccc(Cl)cc1C2n1nnc2ccccc21 (centres unmarked)	3T3-L1 mature adipocytes	MTT		72 h		IC50	100 to 1000 µg/mL
COc1cc(N2CCC(N3CCN(C)CC3)CC2)ccc1Nc1ncc(Cl)c(Nc2ccccc2S(=O)(=O)C(C)C)n1	Rh28 (alveolar rhabdomyosarcoma)	cell growth		3 days		IC50	80 ± 20 nM
CCCCC[C@@H]1NC(=O)[C@@H]2CCCN2C(=O)[C@H](CC(=O)O)NC(=O)[C@H](Cc2ccc(O)cc2)NC(=O)[C@H](CO)NC(=O)[C@H]([C@@H](C)CC)NC(=O)[C@H](Cc2ccc(-c3ccccc3)cc2)NC(=O)[C@H](CC(C)C)NC(=O)[C@@H]2[C@@H](c3ccccc3)CCN2C(=O)[C@H](NC(=O)[C@H](CCCNC(=N)N)NC(=O)[C@H](CCCNC(=N)N)NC(C)=O)CSCSC[C@@H](C(=O)N[C@@H](CCCNC(=N)N)C(=O)N[C@@H](CCCNC(=N)N)C(N)=O)NC1=O	AsPC-1	AlphaScreen, item: pERK		2 h		IC50	7000 nM
CC(C)n1ncc2c(C(=O)NCC3(C)CNC3)cc(C3CC3)nc21	Enterovirus D68	time-of-addition	RD, US/MO/14-18947	3 µM, 0 to 0 h post infection		virus titre	200 PFU/mL and 400 PFU/mL
CN1CCN(C(=O)c2ccc([C@H]3[C@@H](F)[C@@H](F)C[C@@H](F)[C@H]3F)cc2)CC1		hepatocyte stability	cryopreserved rat hepatocytes	1 µM		hepatic clearance	10 mL/min/kg
CCN(CCO)CCCC(C)Nc1ccnc2cc(Cl)ccc12 (centres unmarked)	human PBMC	IFN-driven gene expression, inhibitor, qRT-PCR, item: IFI44L mRNA		two donors, added: ssRNA		IC50	2200 ± 800 nM

SMILES	tested on	test	system	setting	how to read	quantity	result
CC(C)CC(=O)Nc1[nH]nc2c1CN(C(=O)C1CCN(C)CC1)C2(C)C	Trypanosoma brucei	cell growth				EC50	1880 ± 332 nM
CC(=O)O[C@@]12CO[C@@H]1C[C@H](O)[C@@]1(C)C(=O)[C@H](O)C3=C(C)[C@@H](OC(=O)[C@H](O)[C@@H](NC(=O)OC(C)(C)C)c4ccccc4)C[C@@](O)([C@@H](OC(=O)c4ccccc4)[C@H]21)C3(C)C	Abrams canine osteosarcoma	cell viability, resazurin		72 h		IC50	41.6 nM
NS(=O)(=O)c1ccc(N/N=C2\C(=O)Nc3ccc(-c4cnco4)cc32)cc1	Trypanosoma brucei			unit not given	baseline: pEC50 T. brucei minus pTC50 HepG2	selectivity	> 2.4
COc1ccc(F)cc1C(=O)NCc1ccc(-c2nn([C@@H](C)C(F)(F)F)c(N)c2C(N)=O)cc1	Rec1	item: IL-10		24 h		IC50	3.2 ± 0.9 nM
COc1cc2nccc(Oc3ccc(NC(=O)C4(C(=O)Nc5ccc(F)cc5)CC4)cc3)c2cc1OC	Rh28 (alveolar rhabdomyosarcoma)	cell growth		3 days		IC50	4290 ± 1130 nM
Cn1cc(-c2ccc(-c3cncc(Cl)c3N3CCC4(CCNC4=O)CC3)cc2)cn1	7dF3	WNT reporter gene, inhibitor				IC50	5 ± 2 nM
CCOc1c([C@H](C)n2nc(C)c3c(N)ncnc32)cc(Cl)c(F)c1[C@@H]1CNC(=O)C1		ECG	previously treated B-cell malignancy patients	oral, 10 mg once daily, baseline QTcF ≤450 ms		observations QTcF >450 ≤480 ms	0%
C[C@H](Nc1ccc2c(c1)OCCn1cc(N3C(=O)OC[C@H]3C(F)F)nc1-2)C(N)=O	SNU-1076	cell growth, CellTiter-Glo		120 h		IC50	370 nM
[Se]=c1n(C23CC4CC(CC(C4)C2)C3)ccn1C12CC3CC(CC(C3)C1)C2	H157 lung carcinoma cells	cell viability, MTT		72 h		IC50	9400 nM
COC(=O)c1ccccc1-c1c2ccc(=N)cc-2oc2cc(N)ccc12	untransduced HeLa	CellTiter-Glo		48 h		IC50	5720 ± 700 nM
CCCCN1C[C@H](O)[C@@H](O)[C@@H](O)[C@H]1CO	sample E patient fibroblasts	GlcCer level lowering, LC-MS/MS, item: GlcCer d18:1/16:0		216 h		IC50	22200 nM
CC[C@H](C)[C@@H]1NC(=O)[C@H](Cc2ccc(-c3ccccc3)cc2)NC(=O)[C@H](CC(C)C)NC(=O)[C@@H]2[C@@H](c3ccccc3)CCN2C(=O)[C@H](NC(=O)[C@@H](CCCNC(=N)N)NC(=O)[C@@H](CCCNC(=N)N)NC(C)=O)CSCSC[C@@H](C(=O)N[C@H](CCCNC(=N)N)C(=O)N[C@H](CCCNC(=N)N)C(N)=O)NC(=O)[C@H](C(C)C)NC(=O)[C@@H]2CCCN2C(=O)[C@H](CC(=O)O)NC(=O)[C@H](Cc2ccc(O)cc2)NC(=O)[C@](C)(CO)NC1=O	AsPC-1	AlphaScreen, item: pERK		18 h		IC50	4000 nM
O=C(NCCN1CCCC1=O)c1ccc([C@H]2[C@@H](F)[C@@H](F)C[C@@H](F)[C@H]2F)cc1		liver microsome stability	dog liver microsomes	1 µM		hepatic clearance	7.3 mL/min/kg
CCCCCN1C[C@H](O)[C@@H](O)[C@H](O)[C@@H]1CO	Sandhoff disease patient fibroblasts	glycosphingolipid lowering, LC-MS/MS, item: GM3 d18:1/23:0				IC50	820 nM
C[C@@H](N)COc1ccc(-c2cnc3ccc(N[C@H](C)c4cccc(F)c4)nn23)cc1	HCC78 (SLC34A2-ROS1)	cell viability				IC50	15 nM
Cc1c(C(=O)O)ccc2c3n(nc12)[C@@H]1[C@H](C3)N(CC2CC2)[C@@]2(C(=O)Nc3cc(Cl)ccc32)[C@H]1c1cccc(Cl)c1F	cancer cell lines	cell viability, PRISM pooled screen		120 h, range across all lines		IC50	4.6 to 9800 nM
Nc1ccn([C@@H]2O[C@H](CO)[C@@H](O)C2(F)F)c(=O)n1	SW1990	cell viability, MTT		mutant KRAS spleen metastasis		IC50	6 nM
